Measured values from different studies.
Every numbered part comes from another study and shows a few of its results, in no order. Values joined by “and” are separate records of one study, mostly repeats; a detail may differ.
Chain of UniProt Q99640 (whole entry, looked up): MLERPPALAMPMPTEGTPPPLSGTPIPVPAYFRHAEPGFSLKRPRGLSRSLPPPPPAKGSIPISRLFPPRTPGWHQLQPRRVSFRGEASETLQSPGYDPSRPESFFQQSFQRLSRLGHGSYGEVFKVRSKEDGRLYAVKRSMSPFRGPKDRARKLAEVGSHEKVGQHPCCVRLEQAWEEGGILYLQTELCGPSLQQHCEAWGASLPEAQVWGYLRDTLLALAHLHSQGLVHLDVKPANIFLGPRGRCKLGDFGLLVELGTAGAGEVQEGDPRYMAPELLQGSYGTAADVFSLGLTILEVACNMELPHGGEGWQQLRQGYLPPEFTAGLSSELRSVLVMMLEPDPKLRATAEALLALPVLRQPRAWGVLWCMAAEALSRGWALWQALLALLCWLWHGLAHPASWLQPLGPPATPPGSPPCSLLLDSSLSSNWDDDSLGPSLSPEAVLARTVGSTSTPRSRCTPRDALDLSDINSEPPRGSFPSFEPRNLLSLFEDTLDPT

Set 1 — quantity: body weight
SMILES: Cc1ncsc1-c1ccc(C(CO)NC(=O)C2CC(O)CN2C(=O)C(C(C)C)n2cc(-c3ccc(COc4c(-c5c(C)c(F)cc6[nH]ncc56)c(C5CC5)cc5c(N6CC7CC6CN7)nc(OC6CCOCC6)nc45)cc3)nn2)cc1 (stereo not shown)
mouse, PK-59 xenograft; 10 mg/kg, day 21: 28.5 g and 24.3 g and 25.6 g and 26.1 g and 25.2 g
mouse, PK-59 xenograft; subcutaneous, 30 mg/kg once daily, day 1: 19.9 g and 21.3 g and 18.9 g and 17.8 g
mouse, A-375 xenograft; sc, 30 mg/kg once daily, day 6: 17.9 g and 18.4 g and 18.9 g and 19.5 g
mouse, PK-59 xenograft; 10 mg/kg, day 4: 23.6 g and 24.9 g and 24 g and 26 g and 28.2 g
mouse, A-375 xenograft; sc, 30 mg/kg once daily, day 15: 19.9 g and 18.5 g and 19.7 g and 18.4 g and 19.4 g
mouse, PK-59 xenograft; 3 mg/kg, day 0: 23 g and 24.1 g and 23.7 g

Set 2 — cell line: U-87 MG; tested at: concentration not given; relative to: DMSO; quantity: log2 fold change
Structure (SMILES): CCN1/C(=C/C=C2\CCCC(/C=C/C3=[N+](CC)c4ccccc4C3(C)C)=C2NCCCCCCCCN2CCC(Nc3nc4ccccc4n3Cc3ccc(F)cc3)CC2)C(C)(C)c2ccccc21
measured: BCL11B mRNA: 1.09
measured: GOT1 mRNA: 1.42
measured: ZRANB1 mRNA: 1.09
measured: SPACA6 mRNA: -1.41
measured: MEFV mRNA: -1.87
measured: APOBEC3B mRNA: -2.05
measured: IL7R mRNA: -2.66
measured: CCNL1 mRNA: 0.914
measured: TNFRSF11B mRNA: -3.25
measured: ARHGAP29 mRNA: -1.51
measured: DPF2 mRNA: 0.819
measured: MSC: 1.99
measured: DBF4 mRNA: -1.34
measured: PDLIM7 mRNA: -1.1
measured: GRIK2 mRNA: 2.9
measured: MYL6 mRNA: -1.12

Set 3 — effect on: thermal unfolding; technique: differential scanning fluorimetry; tested at: 5.5 µM; reading: higher = more unfolded; quantity: SYPRO Orange fluorescence
SMILES: C[C@@H]1CN(c2ccc(-c3cc(C(=O)NCCOCCOCCOCCOCCNC(=O)Cn4cc(-c5[nH]cc(C(=O)N[C@@H](CC(N)=O)c6ccc(F)c(Cl)c6)c5-c5ccc(Cl)cc5F)cn4)ccc3F)cc2NC(=O)c2c[nH]c(=O)cc2C(F)(F)F)C[C@H](C)N1C
WDR5: WD repeat-containing protein 5 (WDR5, Homo sapiens, UniProt P61964)
DCAF1: DDB1- and CUL4-associated factor 1 (DCAF1, Homo sapiens, UniProt Q9Y4B6)
Chain of UniProt Q9Y4B6 (whole entry, looked up): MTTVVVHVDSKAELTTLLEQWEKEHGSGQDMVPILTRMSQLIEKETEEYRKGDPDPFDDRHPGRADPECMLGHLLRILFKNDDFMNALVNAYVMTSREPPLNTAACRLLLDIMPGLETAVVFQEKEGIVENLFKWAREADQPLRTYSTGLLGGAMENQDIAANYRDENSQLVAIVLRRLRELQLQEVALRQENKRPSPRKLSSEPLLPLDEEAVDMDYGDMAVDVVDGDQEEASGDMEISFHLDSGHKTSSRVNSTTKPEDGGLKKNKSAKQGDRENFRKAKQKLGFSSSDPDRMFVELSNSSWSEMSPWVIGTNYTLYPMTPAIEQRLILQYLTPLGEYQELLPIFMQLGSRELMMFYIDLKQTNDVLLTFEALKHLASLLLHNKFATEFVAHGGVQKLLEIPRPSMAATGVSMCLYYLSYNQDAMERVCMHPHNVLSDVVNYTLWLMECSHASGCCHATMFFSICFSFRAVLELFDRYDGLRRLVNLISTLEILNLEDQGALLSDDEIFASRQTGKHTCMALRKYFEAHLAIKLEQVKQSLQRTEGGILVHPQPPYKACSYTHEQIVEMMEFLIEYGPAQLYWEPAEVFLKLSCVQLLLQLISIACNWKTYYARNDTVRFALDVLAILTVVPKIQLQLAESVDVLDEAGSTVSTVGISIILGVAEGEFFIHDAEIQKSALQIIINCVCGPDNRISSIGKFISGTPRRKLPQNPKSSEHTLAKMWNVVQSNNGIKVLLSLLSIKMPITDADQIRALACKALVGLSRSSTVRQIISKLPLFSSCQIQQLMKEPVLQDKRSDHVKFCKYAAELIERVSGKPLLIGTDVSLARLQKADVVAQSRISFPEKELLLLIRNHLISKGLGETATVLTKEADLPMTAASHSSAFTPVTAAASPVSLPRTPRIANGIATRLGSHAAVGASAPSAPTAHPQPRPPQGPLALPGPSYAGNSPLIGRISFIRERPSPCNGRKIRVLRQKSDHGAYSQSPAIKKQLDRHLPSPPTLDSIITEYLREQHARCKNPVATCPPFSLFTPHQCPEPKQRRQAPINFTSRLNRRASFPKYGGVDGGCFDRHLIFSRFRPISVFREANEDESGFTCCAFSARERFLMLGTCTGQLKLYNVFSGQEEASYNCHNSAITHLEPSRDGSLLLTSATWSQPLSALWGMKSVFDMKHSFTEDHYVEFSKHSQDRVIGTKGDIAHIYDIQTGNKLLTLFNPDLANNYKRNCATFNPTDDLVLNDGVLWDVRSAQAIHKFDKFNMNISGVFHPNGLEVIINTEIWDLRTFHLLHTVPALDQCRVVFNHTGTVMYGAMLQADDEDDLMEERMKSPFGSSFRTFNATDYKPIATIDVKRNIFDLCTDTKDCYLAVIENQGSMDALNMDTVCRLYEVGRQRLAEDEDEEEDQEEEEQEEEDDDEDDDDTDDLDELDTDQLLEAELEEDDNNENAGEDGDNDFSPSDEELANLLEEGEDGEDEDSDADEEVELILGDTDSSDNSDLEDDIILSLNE
WDR5; 26.6 °C: 14700 a.u.
WDR5; 75.21 °C: 11500 a.u.
WDR5; 66.21 °C: 7250 a.u.
WDR5; 59.61 °C: 10600 a.u.
DCAF1; 81.41 °C: 43000 a.u.
DCAF1; 54.81 °C: 19100 a.u.
DCAF1; 91.41 °C: 33800 a.u.
DCAF1; 63.21 °C: 52100 a.u.
DCAF1; 83.81 °C: 40900 a.u.
DCAF1; 38.8 °C: 9870 a.u.
WDR5; 52.2 °C: 14400 a.u.

Single results of other studies
Cc1ccc(O)c(C)c1-c1cnc2[nH]c(-c3cnc(N4CCC5(CC4)CC(N4CCN(c6ccc(N[C@H]7CCC(=O)NC7=O)cc6F)CC4)CO5)nc3)cc2c1C#N (single isomer, unassigned) — AUC(0-t) (male cynomolgus monkey, plasma; oral, 10 mg/kg): 1720 ng·h/mL
Cc1ccc(O)c(C)c1-c1cnc2[nH]c(-c3cnc(N4CC5(CC(CN6CCN(c7ccc(NC8CCC(=O)NC8=O)cc7F)CC6)C5)C4)nc3)cc2c1C#N (stereo not shown) — plasma concentration (CD-1 mouse; intravenous, dose not given, 4 h): not detected
Cc1ccc(O)c(C)c1-c1cnc2[nH]c(-c3cnc(N4CCC5(CC4)CC(N4CCN(c6ccc(N[C@H]7CCC(=O)N(C)C7=O)cc6F)CC4)CO5)nc3)cc2c1C#N (single isomer, unassigned) — degradation (Membrane-associated tyrosine- and threonine-specific cdc2-inhibitory kinase (PKMYT1, Homo sapiens, UniProt Q99640); degrader, automated immunoblot (Jess); 1.37 nM, 24 h): 14.9%
Cc1ccc(O)c(C)c1-c1cnc2[nH]c(-c3cnc(N4CCC(CN5CCN(c6ccc(NC7CCC(=O)NC7=O)cc6F)CC5)CC4)nc3)cc2c1C#N (stereo not shown) — efflux ratio (Caco-2; bidirectional permeability; 2 µM, 2 h, pH 7.4; relative to: B-A over A-B): 12.4

A few entries again (single results of other studies):
Cc1ccc(O)c(C)c1-c1cnc2[nH]c(-c3cnc(N4CCC5(CC4)CC(N4CCN(c6ccc(N[C@H]7CCC(=O)NC7=O)cc6F)CC4)CO5)nc3)cc2c1C#N (single isomer, unassigned) — AUC(0-t) (male cynomolgus monkey, plasma; oral, 10 mg/kg): 1720 ng·h/mL
Cc1ccc(O)c(C)c1-c1cnc2[nH]c(-c3cnc(N4CC5(CC(CN6CCN(c7ccc(NC8CCC(=O)NC8=O)cc7F)CC6)C5)C4)nc3)cc2c1C#N (stereo not shown) — plasma concentration (CD-1 mouse; intravenous, dose not given, 4 h): not detected
Cc1ccc(O)c(C)c1-c1cnc2[nH]c(-c3cnc(N4CCC5(CC4)CC(N4CCN(c6ccc(N[C@H]7CCC(=O)N(C)C7=O)cc6F)CC4)CO5)nc3)cc2c1C#N (single isomer, unassigned) — degradation (Membrane-associated tyrosine- and threonine-specific cdc2-inhibitory kinase (PKMYT1, Homo sapiens, UniProt Q99640); degrader, automated immunoblot (Jess); 1.37 nM, 24 h): 14.9%
Cc1ccc(O)c(C)c1-c1cnc2[nH]c(-c3cnc(N4CCC(CN5CCN(c6ccc(NC7CCC(=O)NC7=O)cc6F)CC5)CC4)nc3)cc2c1C#N (stereo not shown) — efflux ratio (Caco-2; bidirectional permeability; 2 µM, 2 h, pH 7.4; relative to: B-A over A-B): 12.4
